Measured values from different studies.
Protocols differ between the studies behind these lines. ± marks the error that the study gave.
Organism: Plasmodium falciparum

Oc1ccc(-c2ccc(O)c3ccccc23)c2c1C=NCC2  IC50 (asexual parasite proliferation, SYBR Green I fluorescence; Dd2): 1620 ± 99 nM
CCC1(CC)CC(=O)N(C2CCOc3ccc(C(=O)NC4CC(C)(C)Oc5ccccc54)cc32)C(=N)N1 (stereo not shown)  parasite clearance time (3D7; 10 × EC50, 120 h, 99% clearance): 53.8 h
COc1cncc(-c2cc(F)cc(CNC(=O)c3cc(N4CC[C@@](C#N)(C5CC5)C4=O)cc(C)n3)c2)c1  IC50 (parasite growth; cPRS conditional knockdown line; 72 h, with: 50 nM anhydrotetracycline): 48 nM
CC(NC(=O)c1cccc(C(c2ccccc2)N2C(=N)NC(C)(C(C)C)CC2=O)c1)c1ccccc1 (stereo not shown)  EC50 (parasite growth; 72 h, blood stage): 10.5 nM
N#Cc1cc(NC(=O)C2c3ccccc3C(=O)N(CC(F)(F)F)C2c2ccc[n+]([O-])c2)ccc1F (stereo not shown)  EC50 (parasite growth): > 10000 nM
COc1cccc2c(-c3ccc(O)c4c3C[C@@H](C)N[C@@H]4C)c(C)cc(O)c12  IC50 (asexual parasite proliferation, SYBR Green I fluorescence; Dd2): 59.7 ± 6.9 nM
CCc1nc(N)nc(N)c1-c1ccc(Cl)cc1  parasite clearance time (3D7; 10 × EC50, 120 h, 99% clearance): 58.5 h
Cc1cc(N2CCC(CO)(C3CC3)C2=O)cc(C(=O)NCc2cc(F)cc(-c3cnn(C)c3)c2)n1 (stereo not shown)  IC50 (parasite growth; conditional knockdown control line; 120 h, with: 3 nM anhydrotetracycline): 198 nM
CN1CCN(C(=O)c2ccc(-c3cc4nccc(-c5ccc6cnccc6c5)c4o3)cc2)CC1  EC50 ([3H]-hypoxanthine incorporation; Dd2; 72 h): 5 nM
Cc1cc(N2CC[C@@](C#N)(C3CC3)C2=O)cc(NC(=O)Cc2ccccc2)n1  IC50 (parasite growth; cPRS conditional knockdown line; 72 h, with: 50 nM anhydrotetracycline): 11 nM
CC1=N[C@H](C)Cc2c(-c3ccc(C)cc3)ccc(O)c21  IC50 (asexual parasite growth, SYBR Green I; clinical isolate SB_04, Malawi): 808 ± 23 nM
COCCN(C)CC(=O)NC(Cc1ccc(-c2ccccc2)cc1)B(O)O (stereo not shown)  IC50 (liver schizont development; primary human hepatocytes, NF54; 96 h): 120 nM
CC(C)(C)NC(=O)CC(NC(=O)CCc1ccccc1)C(=O)NCCNC(=O)c1cccc(-c2ccccc2)c1 (stereo not shown)  EC50 (parasite growth; NF54; 72 h, gametocyte): 31.6 nM
COc1cccc2c(-c3ccc(O)c4c3CCNC4)ccc(O)c12  IC50 (asexual parasite proliferation, SYBR Green I fluorescence; Dd2): 408 ± 77 nM
Cc1cc(C(=O)N[C@@H](CC(=O)NC(C)(C)C)C(=O)NCCNC(=O)c2cccc(-c3ccn[nH]3)c2)no1  EC50 (female gamete activation; NF54; 48 h): > 10000 nM
CCNCC#CCNc1ccnc2cc(Cl)ccc12  IC50 (parasite growth; RF12): 94 nM
CC(C)(C)NC(=O)CC(NC(=O)CCc1ccccc1)C(=O)NCCNC(=O)c1ccc(-c2ccccc2)cc1 (stereo not shown)  EC50 (parasite growth, SYBR Green; 3D7; 72 h, blood stage): > 2770 nM
COc1cccc2c(-c3ccc(O)c4c3CCN=C4)ccc(OC(C)C)c12  IC50 (asexual parasite proliferation, SYBR Green I fluorescence; 7G8): 87 ± 19 nM
Cc1cc(C(=O)N[C@@H](CC(=O)NC(C)(C)C)C(=O)NCCNC(=O)c2cccc(-n3cccn3)c2)no1  EC50 (chloroquine-resistant field isolate, human): 34 nM
CC1=N[C@H](C)Cc2c(-c3ccc4ccccc4c3)ccc(O)c21  IC50 (asexual parasite proliferation, SYBR Green I fluorescence; HB3): 893 ± 9 nM
Cc1cc(C(=O)N[C@@H](CC(=O)NC(C)(C)C)C(=O)NCCNC(=O)c2cc(-c3ccccc3)ccn2)no1  EC50 (parasite growth; NF54; 48 h, gametocyte): 140 nM
COc1cc(O)c(-c2cc(-c3cc(-c4c(O)cc(OC)c5c4C[C@@H](C)N[C@@H]5C)c4cc(C)cc(OC)c4c3O)c(O)c3c(OC)cc(C)cc23)c2c1[C@@H](C)N[C@H](C)C2  IC50 (asexual parasite proliferation, SYBR Green I fluorescence; Dd2): 82 ± 10 nM

Excerpt of the above:
Oc1ccc(-c2ccc(O)c3ccccc23)c2c1C=NCC2  IC50 (asexual parasite proliferation, SYBR Green I fluorescence; Dd2): 1620 ± 99 nM
